# Experimental data gathered from unrelated publications.
# Every numbered part comes from another study and shows a few of its results, in no order.

# Sample 1
# Target: Sal-like protein 4, full length isoform A (SALL4, Homo sapiens, UniProt Q9UJQ4, residues 1-1053)
# UniProt Q9UJQ4, sequence (whole entry, looked up): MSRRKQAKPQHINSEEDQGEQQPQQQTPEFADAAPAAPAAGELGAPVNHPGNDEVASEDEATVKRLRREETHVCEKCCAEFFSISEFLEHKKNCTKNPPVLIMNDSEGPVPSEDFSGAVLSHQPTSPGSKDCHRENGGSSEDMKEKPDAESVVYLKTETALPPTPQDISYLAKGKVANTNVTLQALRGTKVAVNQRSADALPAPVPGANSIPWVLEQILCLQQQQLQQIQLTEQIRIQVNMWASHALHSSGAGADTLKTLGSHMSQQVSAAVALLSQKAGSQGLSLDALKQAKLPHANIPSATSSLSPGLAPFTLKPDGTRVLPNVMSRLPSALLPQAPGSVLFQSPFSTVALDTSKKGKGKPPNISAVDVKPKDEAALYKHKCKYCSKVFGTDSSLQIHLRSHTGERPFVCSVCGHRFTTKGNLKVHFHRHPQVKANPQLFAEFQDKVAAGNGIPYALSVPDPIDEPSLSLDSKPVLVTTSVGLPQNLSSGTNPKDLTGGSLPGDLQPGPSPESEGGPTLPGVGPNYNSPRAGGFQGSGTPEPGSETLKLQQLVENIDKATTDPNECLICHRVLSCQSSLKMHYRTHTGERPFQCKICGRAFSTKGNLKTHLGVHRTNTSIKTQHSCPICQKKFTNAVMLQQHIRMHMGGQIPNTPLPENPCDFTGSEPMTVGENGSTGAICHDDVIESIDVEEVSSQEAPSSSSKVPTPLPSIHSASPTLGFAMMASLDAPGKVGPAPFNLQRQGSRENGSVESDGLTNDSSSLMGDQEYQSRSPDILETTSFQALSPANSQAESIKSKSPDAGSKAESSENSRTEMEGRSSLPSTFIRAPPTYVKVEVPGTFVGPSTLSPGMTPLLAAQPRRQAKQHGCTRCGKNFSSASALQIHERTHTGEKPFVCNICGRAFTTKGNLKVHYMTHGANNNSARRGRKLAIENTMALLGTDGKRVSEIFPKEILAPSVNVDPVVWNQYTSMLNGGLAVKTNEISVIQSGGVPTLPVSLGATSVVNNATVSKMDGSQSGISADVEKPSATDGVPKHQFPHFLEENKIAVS
# Method: universal PBM
# Molecule type: double-stranded DNA, one strand shown
# Matrix: in vitro
# Tested at: 600 nM
# Setting: 8-mer, flanks averaged, mean of replicates
# Reading: higher = stronger binding
Oligonucleotide,E-score
GCGACCCC,-0.244
ACGATTTG,0.102
AGCGGCAC,-0.343
CCGAACTC,-0.188
CAGGTATG,-0.031
CGGGTGTC,-0.272
AGTAAAAA,0.335
TACACTGA,0.143
GAAATTGC,0.0886
AGAACGGC,-0.2
AAGCTGGA,-0.0531
CCATCCAA,0.0747
GAACGGAC,-0.0999
TACGAATA,0.285
AACTTAAG,0.168
CTTCCTCC,-0.214
AGTCCCAA,-0.0947
GGGAGTTA,0.0511
AGGCAGAA,0.0201
CATAGTAA,0.316
GCCCGACC,-0.336

# Sample 2
# Target: Centromere-binding protein 1, full length, His-tagged (CBF1, Saccharomyces cerevisiae, UniProt P17106, residues 1-351)
# UniProt P17106, sequence (whole entry, looked up): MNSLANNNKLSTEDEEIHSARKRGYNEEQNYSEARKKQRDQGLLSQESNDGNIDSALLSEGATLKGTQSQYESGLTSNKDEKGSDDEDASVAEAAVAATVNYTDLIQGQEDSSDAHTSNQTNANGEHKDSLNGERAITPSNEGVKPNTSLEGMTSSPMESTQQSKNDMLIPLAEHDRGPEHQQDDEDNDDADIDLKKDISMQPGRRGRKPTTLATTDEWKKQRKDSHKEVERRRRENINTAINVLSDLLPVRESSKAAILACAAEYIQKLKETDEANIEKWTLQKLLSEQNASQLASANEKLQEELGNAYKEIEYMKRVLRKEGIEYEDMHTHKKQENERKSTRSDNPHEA
# Method: competition protein-binding microarray
# Molecule type: double-stranded DNA, one strand shown
# Matrix: in vitro
# Tested at: 2 µM
# Setting: whole 60-bp probe, lowest competitor level
# Together with: Pho4 competitor, 0.05 µM
# Reading: higher = stronger binding
# Constant ends, left off below: … GTCTTGATTCGCTTGACGCTGCTG
Oligonucleotide,fluorescence intensity [a.u.]
ACTATAAAGAACTGTCACATGACGATACATCCAAGC,2150
CTAACGAAGGTTTGTTTTGTGGGTGACAAGCCAAGT,73.6
AGCAACGTTTAGTGAACCGTGACAAGTTTGGCCAGC,118
CTTTCCCGATCTTGAGAAGTGGGTGTAGCACATTTG,64.4
CGGGGTTAAGTTTGGTGGGTGGGTGGCTTGCAGCAG,72.3
CACCTATCATCAGCCAACGTGACGGCCGCGATGCCT,204
CATACCCAACCTTGTAACGTGGGTGAAGATATTTGT,92.4
CTTCTGTAAATTTTTCACGTGTTGTGAAGCGCCCCG,1030
GGTACGAGAATCGAACCCGTGTCCTCACCTTGGAAG,94.9
TGCGCAACAACTTGTCACCCAACTTTATGTCTAGAA,73.4
CTCGATCTACCGTTCCACGTGACTCGTCCAAGGATT,6120
ACCTAACCGGTGTCCCACGTGTTTCACGAAGGGCGC,662
CGGGGTTAAGTTTGTCCTGTGGGTGGCTTGCAGCAG,66.6
CGTCCTAGTGATTGTCACTCAACTTCCATGAGGAAG,93.5
CGGGGTTAAGTTTGTCACGCGACTTGCTTGCAGCAG,519
TGAAGACCCACCCATCACGTCTATCCCGCCAGAGTC,76.8
CGGGGTTAAGTTTTTCACGTGCATTGCTTGCAGCAG,843
AGGTCTTTGCGTAGGATTGTATAAGCCCGGCCATTG,55.5
AGCAGCAATCCGCTGGACGTGGGTAAGTTGAAAGTT,44.2
CATACCCAACCTTGGGCGGTGGGTGAAGATATTTGT,73.6
AGATTCTGCAAATGGTACGTGATGGTGGTCCGCGGA,76.2
TGCCTATGGTAGCTGCATGATCATACAATGCACTCC,102
TAGTGTTAAAGCAACACCGTGATGGCCTTGGTGGTG,83
TTATTTTTTCAGTCGCTCGTGGTCGATCGCCAACTT,90.2
TTGACAGTCCCTGGACATGTGGCCAGCTTTACCACA,114

# Sample 3
# Target: Histone acetyltransferase KAT6A, winged helix 2, GST fusion (KAT6A, Homo sapiens, UniProt Q92794, residues 85-181)
# Method: protein binding microarray
# Molecule type: double-stranded DNA, one strand shown
# Matrix: in vitro
# Tested at: not given
# Setting: 8-mer, flanks averaged, mean of 2 arrays, mostly near background
# Relative to: not given
# Reading: higher = stronger binding
# Construct (chain): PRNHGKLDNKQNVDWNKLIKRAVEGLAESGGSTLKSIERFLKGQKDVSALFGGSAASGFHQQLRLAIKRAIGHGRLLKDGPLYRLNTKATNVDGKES
Oligonucleotide,E-score
GCGAGTAA,0.171
CACTTGAC,-0.0239
CCATCTTA,-0.0716
AGGCTAGC,-0.0529
ACAGAAAG,0.0932
AGAGACAC,-0.122
CGGTGCTC,0.184
CGGTGATC,-0.13
AGTTTCGA,-0.0418
AATCTGAC,0.00954
TAACATCA,0.0677
ATGTTGAA,-0.0467
ACCGCTTA,-0.0373
AGCTCGTC,-0.0318
CAGGTACG,0.0123
ATCGTAAC,0.151
ATTTAGGG,-0.0814
CTCACCTA,-0.0826
GATCCCCA,-0.023
GCGCCTTA,0.0219

# Sample 4
# Target: RNA binding protein fox-1 homolog 2, RRM domain, GST-SBP tag (RBFOX2, Homo sapiens, UniProt O43251-10, residues 100-194)
# Method: RNA Bind-n-Seq
# Molecule type: RNA
# Matrix: in vitro
# Tested at: 365 nM
# Setting: natural RNA segment, single round, ends assumed
# Relative to: no-protein control
# Reading: higher = stronger binding
# Constant ends, left off below: GGGAGUUCUACAGUCCGACGAUC … UGGAAUUCUCGGGUGCCAA
# Target sequence (chain): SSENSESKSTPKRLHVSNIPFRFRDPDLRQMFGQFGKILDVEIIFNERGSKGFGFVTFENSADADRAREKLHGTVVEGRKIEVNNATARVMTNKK
Oligonucleotide,RBNS enrichment (R)
CUGGGGCUGCUCACUAGGCCUUGUAAUCACACAGCACAAGCAUACCUCACAGCCACCCUGAGGCUCUCUGACCCUGGGAUGCUGAGGCCUUCUUAGCCUCUAGGUACAGU,0.329
UACCAGUGGGCUGCUGCUCUGUGGCUGAGGGGCCAUCUAUGCAGAGUCUGUCCCUAUUUAUGUAUGGUGGUUGAGGGCUGUGUGGCCAGGACCAAGAGCAAGGCCCAGCU,0.761
GUGCUGUCUUGGUACUAGUGUAGUGACUUUUUUUCUCCUCUUCUAGUACAUAUUGAUAGGUAUAAUGUAAUUAAGGUUUUAAAAAAAAUAGACAUAGUUAUUCAGAUUAG,0.58
UGCAGCCAGUGUGCUCUUGAAUAACAAGCAGGUUAAGGGGCUGGAGGAUCAGAAAGAUACCCCAGCUCCAUCAUAGUUUGAGUCAUGUUUCUAUGCCACUUUGGUCCCCA,0.411
AGUGAUGAAUUUAAGAGAGUUUUAACAUGUCAAAUUUGAAGCCAAUUCAGUAUCCUUAUUUGUUCCAAGACUCUUAACCAAUACUGUGAUAUAAAGUUAGGAUUUGGGAA,0.387
UAGGGAGAGGCGAGGUUACAGUGUUUAUAUUUUGGAACCUUCCUGAAGGUGUGAAAUUGUAAAUAUUUUUAUCUAAGUAAAUGUUAAGCAGUUGUUUUAAAAAUACUUAA,0.438
AGUGACUCCAGCCACCUGAGAGCGCCCAGGAGCACCAGGGGGGGCCAGAUGCGCUUCCUGAGCUCUUGGAUCAGUGCGCUGAAGGGCCGCACUUACAAGUGCCUGUCUGG,0.25
CACCCCGUGCCUCCUGCCUCCGCGCAGCCUGCAGCGGGAGACCCUGUCCCCGCCCCAGCCGUCCUCCUGGGGUGGACCCUAGUUUAAUAAAGAUUCACCAAGUUUCACGC,0.277
GGAUAGACUUUUAGUUGAUAGAGAGCCAGUUGAAAUAUCAUCAAUAGAAUUUUAGUUUAGGGAAAACUGGUUUGAUUUCUAGCUUUAUUACUAUUAGGUAUGUAAGCUUG,0.733
ACAUCCCCAGACAAGGAUGGCACAAGAGGCCAAAUUUGAAGGCCUUGGGAGAGAAGCCAUUUCCCCUACCUCUAACGAGCGUAGUUUUCUGUCUGAAUGGCCCCCCUUUU,0.433
UGUAAAUUAUUUUGUAUCUGAGAUACCAGUUCCAUUCCCACAUAUGAAAGUAUAAAGGUUUCCUUGUGUUUUUCUGUGAGUGAACAUUUUGUAAUAAAUUAACAAGUUUG,0.391
GUUCUUGUUAGAACACCAAGCACACACUUGAGAUUAUUUAUUGAUCGAGGCAAAGUAAUUAGUCAUGUUUGGGUUUGCUUUUUUUGUUGAUAAGAUUAACAAUGUGUGCU,1.29

# Some of these lines once more (sample 1):
Oligonucleotide,E-score
AACTTAAG,0.168
TACGAATA,0.285
AGAACGGC,-0.2
CCATCCAA,0.0747
GGGAGTTA,0.0511
GAAATTGC,0.0886
AGTCCCAA,-0.0947
CGGGTGTC,-0.272
CCGAACTC,-0.188
CATAGTAA,0.316
GCGACCCC,-0.244
GCCCGACC,-0.336
CTTCCTCC,-0.214
